# Results of several laboratories.
# Lines come from different studies, so protocols differ. ± gives the spread as reported.
# Organism: Plasmodium falciparum
Compound,test,system,conditions,how to read,measurement,result
COc1ccccc1C1CN(CCNC(=O)c2nc(C)c[nH]2)Cc2ccccc2O1 (stereo not shown),"parasite growth, SYBR Green",3D7 DHODH E182D,72 h,,EC50,> 12.5 µM
C[C@H]1[C@@H](O)O[C@@H]2O[C@@]3(C)CC[C@H]4[C@H](C)CC[C@@H]1[C@@]24OO3,ring-stage survival,6591,"700 nM, 6 h",,parasite survival,0.66%
CCCCN1[C@@H]2CC[C@H]1C[C@@H](OC(c1ccc(F)cc1)c1ccc(F)cc1)C2,,HB3,,,IC50,1 µM
Cn1cc(-c2ccc3ccn(CC(=O)Nc4ccccc4Cl)c3c2)cn1,,Dd2 PfATP4 D425E,72 h,baseline: mutant over parental,EC50 fold shift,2 fold
COc1ccccc1N1CCN(CCCCNC(=O)c2ccc3ccccc3c2)CC1,,W2,,,IC50,2.51 µM
c1cc([C@H]2CC[C@]3(CC2)OO[C@]2(O3)C3CC4CC(C3)CC2C4)ccc1OCCN1CCOCC1,,"human patients, malaria","oral, 800 mg",,lag phase duration,6 h
C[C@H]1[C@@H](O)O[C@@H]2O[C@@]3(C)CC[C@H]4[C@H](C)CC[C@@H]1[C@@]24OO3,parasite growth,,,,EC50,0.00267 ± 0.00044 µM
CC(C)C[C@H](NC(=O)[C@H](Cc1c[nH]c2ccccc12)NC(=O)CN1CCOCC1)C(=O)N[C@H](/C=C/S(C)(=O)=O)Cc1c[nH]c2ccccc12,,Dd2 β3 R190S CRISPR-edited,concentration not given,,EC50,0.026 ± 0.0014 µM
CN(C)CCCN1c2ccccc2CCc2ccccc21,,W2,,,IC50,1.26 µM
CCCCOc1ccccc1C(=O)NCc1csc(-c2ccccc2)n1,"parasite growth, SYBR Green",,72 h,baseline: 3D7-E182D over 3D7,EC50 ratio,1.4

# Some of these lines once more:
Compound,test,system,conditions,how to read,measurement,result
C[C@H]1[C@@H](O)O[C@@H]2O[C@@]3(C)CC[C@H]4[C@H](C)CC[C@@H]1[C@@]24OO3,ring-stage survival,6591,"700 nM, 6 h",,parasite survival,0.66%
